Experimental data pooled from the literature.
Numbered parts are unrelated; each lists some results of a single study. Changes are numbered by the printed parent chain.

Sample 1 — method: protein-binding microarray; form: double-stranded DNA, one strand shown; matrix: in vitro; tested at: not given; reading: higher = stronger binding; measurement: E-score
Target: Myc proto-oncogene protein, bHLH-zipper, MAX partner unstated (MYC, Homo sapiens, UniProt P01106, residues 368-449)
UniProt P01106, sequence (368-449, looked up): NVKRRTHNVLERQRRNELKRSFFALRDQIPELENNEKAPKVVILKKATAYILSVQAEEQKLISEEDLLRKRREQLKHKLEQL
Setting: k-mer, scored over probes, only values ≥0.25
ATCATGAG: 0.254
ACGTGTTG: 0.412
CCCACGCG: 0.454
ACAGCACG: 0.339
ACCATGAC: 0.256
ATGAGGTC: 0.335
CGCGGTCA: 0.251
AACGAGGT: 0.293

Sample 2 — target: CCNB2, cyclin fold, Cln2 fusion (human); method: yeast growth competition, sequencing; matrix: yeast; setting: strong parent motif; reference: not given; reading: higher = stronger binding; measurement: normalised enrichment score
Starting sequence: viral docking peptide; YKVKRRLVFGADD; partner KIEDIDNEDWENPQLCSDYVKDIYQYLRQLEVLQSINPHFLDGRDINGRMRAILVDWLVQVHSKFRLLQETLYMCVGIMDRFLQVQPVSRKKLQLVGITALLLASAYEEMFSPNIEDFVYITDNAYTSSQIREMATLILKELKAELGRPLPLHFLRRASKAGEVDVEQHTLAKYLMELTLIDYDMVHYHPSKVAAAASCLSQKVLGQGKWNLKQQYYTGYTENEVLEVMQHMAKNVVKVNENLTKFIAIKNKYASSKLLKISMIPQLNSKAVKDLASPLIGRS
K2V: 1.64
K2G: 2.58
V8S: 3.81
K4D: 0.164
R6D: 0.538
V3Q: 0.854
D12K: 0.452
K4Y: 0.908
R5A L7A: 0.193
L7A: 0.18
R5Q: 1.09
R5D: 0.133
Y1A: 1.36
K2N: 2.36
L7S: 1.04
F9R: 0.379

Sample 3 — target: inorganic phosphate, free oxyanion; method: microfluidic competitive inhibition; matrix: in vitro, cell-free expressed; tested at: not given; reading: lower = stronger binding; measurement: phosphate dissociation constant
Setting: derived from inhibition constants, unchanged parent 615000 nM
Starting sequence: PafA, mature enzyme, eGFP fusion (Elizabethkingia meningoseptica, UniProt Q9KJX5); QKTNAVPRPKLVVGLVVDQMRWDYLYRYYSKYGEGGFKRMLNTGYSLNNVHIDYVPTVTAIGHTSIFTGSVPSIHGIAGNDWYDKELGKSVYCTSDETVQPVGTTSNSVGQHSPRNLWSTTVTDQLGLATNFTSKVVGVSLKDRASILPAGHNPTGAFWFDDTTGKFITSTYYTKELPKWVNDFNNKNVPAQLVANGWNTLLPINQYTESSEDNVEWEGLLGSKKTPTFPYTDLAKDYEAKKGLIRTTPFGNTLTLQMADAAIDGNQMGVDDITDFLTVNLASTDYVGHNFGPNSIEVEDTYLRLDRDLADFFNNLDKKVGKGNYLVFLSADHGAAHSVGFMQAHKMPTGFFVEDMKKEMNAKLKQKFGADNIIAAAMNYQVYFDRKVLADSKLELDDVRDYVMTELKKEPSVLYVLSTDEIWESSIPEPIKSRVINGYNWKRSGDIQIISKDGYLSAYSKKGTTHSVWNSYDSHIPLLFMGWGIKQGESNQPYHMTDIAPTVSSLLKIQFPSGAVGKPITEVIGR
L128G: 386 µM
Y325V: 656 µM
Y286V: 515 µM

Sample 4 — method: DHFR PCA, deep sequencing; matrix: yeast; together with: (+)-ABA 200 µM; reference: wild-type fitted maximum; reading: higher = stronger binding; measurement: relative binding score
Target: ABI1, truncated, D143A, DHFR fusion (Arabidopsis thaliana)
Setting: methotrexate growth selection, single substitutions
Starting sequence: PYL1, truncated, DHFR fusion (Arabidopsis thaliana); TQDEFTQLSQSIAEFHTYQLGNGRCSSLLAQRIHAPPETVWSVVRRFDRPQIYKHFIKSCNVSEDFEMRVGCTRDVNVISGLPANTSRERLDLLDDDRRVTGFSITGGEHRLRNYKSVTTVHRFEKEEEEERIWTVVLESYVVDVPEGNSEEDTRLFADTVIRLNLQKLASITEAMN; partner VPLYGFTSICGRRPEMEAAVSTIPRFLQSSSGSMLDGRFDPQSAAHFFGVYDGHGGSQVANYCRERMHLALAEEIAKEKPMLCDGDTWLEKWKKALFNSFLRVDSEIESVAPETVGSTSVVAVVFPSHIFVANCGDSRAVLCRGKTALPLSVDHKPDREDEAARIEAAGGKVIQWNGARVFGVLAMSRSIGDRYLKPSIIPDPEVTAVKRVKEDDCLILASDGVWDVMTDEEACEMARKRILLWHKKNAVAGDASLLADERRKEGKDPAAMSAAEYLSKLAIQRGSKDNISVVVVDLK
V145G: 8.09%
A158C: 102%
G107T: 63.8%
L112W: -12.8%
A84K: 9.98%
G148Q: 78.1%
S9G: 96.7%
R163T: 90.4%

Repeated from above (sample 4):
V145G: 8.09%
A158C: 102%
